# Measured values collected from several papers.
# Lines come from different studies, so protocols differ. Numbers after ± are the reported error.
# CYP2C9: Cytochrome P450 2C9 (CYP2C9, Homo sapiens, UniProt P11712)
# UniProt P11712, sequence (whole entry, looked up): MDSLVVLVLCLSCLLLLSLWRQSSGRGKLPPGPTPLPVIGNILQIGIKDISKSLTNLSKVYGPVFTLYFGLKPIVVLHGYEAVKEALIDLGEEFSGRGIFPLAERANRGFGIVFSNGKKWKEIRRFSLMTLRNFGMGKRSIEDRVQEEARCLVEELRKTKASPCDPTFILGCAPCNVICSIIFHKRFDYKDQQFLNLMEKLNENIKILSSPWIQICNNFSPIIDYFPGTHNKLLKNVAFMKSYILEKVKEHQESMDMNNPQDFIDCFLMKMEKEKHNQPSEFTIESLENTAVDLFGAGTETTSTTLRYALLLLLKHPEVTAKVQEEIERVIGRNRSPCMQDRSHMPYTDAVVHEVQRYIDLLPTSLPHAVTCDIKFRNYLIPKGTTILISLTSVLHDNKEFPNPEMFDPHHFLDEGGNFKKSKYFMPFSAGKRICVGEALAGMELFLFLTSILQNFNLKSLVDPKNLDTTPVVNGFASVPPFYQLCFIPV
# CYP3A4: Cytochrome P450 3A4 (CYP3A4, Homo sapiens, UniProt P08684)
# UniProt P08684, sequence (whole entry, looked up): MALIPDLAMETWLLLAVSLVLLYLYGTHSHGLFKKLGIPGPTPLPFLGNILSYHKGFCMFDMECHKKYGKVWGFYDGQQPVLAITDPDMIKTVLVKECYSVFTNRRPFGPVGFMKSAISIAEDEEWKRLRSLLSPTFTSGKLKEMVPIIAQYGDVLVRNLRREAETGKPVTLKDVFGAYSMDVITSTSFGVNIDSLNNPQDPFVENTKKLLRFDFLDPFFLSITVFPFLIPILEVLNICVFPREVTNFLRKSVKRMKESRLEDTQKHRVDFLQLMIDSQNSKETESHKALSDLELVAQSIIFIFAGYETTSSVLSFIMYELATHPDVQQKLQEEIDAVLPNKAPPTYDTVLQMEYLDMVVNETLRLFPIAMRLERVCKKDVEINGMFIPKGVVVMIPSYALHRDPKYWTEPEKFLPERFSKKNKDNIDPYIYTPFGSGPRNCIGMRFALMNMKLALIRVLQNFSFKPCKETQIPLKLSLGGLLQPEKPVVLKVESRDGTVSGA
# CYP2C8: Cytochrome P450 2C8 (CYP2C8, Homo sapiens, UniProt P10632)
# ABCB1: ATP-dependent translocase ABCB1 (ABCB1, Homo sapiens, UniProt P08183)
# UniProt P08183, sequence (whole entry, looked up): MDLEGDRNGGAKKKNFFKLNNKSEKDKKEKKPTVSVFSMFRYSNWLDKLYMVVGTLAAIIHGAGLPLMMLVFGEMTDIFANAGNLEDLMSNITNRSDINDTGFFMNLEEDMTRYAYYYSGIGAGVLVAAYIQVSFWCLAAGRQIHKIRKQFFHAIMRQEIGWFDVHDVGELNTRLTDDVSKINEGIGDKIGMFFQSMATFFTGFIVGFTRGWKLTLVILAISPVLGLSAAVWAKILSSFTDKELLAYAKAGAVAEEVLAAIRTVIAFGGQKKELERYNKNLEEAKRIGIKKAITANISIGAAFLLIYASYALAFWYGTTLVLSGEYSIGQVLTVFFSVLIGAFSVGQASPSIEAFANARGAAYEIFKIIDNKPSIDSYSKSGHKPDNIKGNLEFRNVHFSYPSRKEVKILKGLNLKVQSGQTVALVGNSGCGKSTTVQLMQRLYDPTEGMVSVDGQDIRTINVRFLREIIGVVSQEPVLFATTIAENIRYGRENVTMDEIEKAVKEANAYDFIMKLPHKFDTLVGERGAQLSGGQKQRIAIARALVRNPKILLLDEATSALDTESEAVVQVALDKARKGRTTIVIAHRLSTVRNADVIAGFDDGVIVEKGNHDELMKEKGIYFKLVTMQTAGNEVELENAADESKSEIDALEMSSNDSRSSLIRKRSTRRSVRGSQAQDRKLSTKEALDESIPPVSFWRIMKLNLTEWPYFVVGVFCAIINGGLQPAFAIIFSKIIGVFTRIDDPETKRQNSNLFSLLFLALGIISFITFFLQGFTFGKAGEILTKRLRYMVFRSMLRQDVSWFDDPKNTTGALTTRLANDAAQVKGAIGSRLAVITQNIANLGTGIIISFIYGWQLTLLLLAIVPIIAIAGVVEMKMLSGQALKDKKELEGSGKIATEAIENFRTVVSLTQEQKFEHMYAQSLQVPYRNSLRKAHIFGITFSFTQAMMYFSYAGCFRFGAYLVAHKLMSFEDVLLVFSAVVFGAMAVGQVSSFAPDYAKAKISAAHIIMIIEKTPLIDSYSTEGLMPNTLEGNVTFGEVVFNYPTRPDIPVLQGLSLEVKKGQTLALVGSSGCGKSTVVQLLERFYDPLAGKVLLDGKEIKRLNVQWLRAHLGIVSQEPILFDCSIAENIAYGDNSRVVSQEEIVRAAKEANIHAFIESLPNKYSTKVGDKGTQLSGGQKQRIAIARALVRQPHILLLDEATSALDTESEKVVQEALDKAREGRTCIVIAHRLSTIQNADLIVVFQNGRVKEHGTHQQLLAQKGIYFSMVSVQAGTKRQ
# UniProt P81425, sequence (whole entry, looked up): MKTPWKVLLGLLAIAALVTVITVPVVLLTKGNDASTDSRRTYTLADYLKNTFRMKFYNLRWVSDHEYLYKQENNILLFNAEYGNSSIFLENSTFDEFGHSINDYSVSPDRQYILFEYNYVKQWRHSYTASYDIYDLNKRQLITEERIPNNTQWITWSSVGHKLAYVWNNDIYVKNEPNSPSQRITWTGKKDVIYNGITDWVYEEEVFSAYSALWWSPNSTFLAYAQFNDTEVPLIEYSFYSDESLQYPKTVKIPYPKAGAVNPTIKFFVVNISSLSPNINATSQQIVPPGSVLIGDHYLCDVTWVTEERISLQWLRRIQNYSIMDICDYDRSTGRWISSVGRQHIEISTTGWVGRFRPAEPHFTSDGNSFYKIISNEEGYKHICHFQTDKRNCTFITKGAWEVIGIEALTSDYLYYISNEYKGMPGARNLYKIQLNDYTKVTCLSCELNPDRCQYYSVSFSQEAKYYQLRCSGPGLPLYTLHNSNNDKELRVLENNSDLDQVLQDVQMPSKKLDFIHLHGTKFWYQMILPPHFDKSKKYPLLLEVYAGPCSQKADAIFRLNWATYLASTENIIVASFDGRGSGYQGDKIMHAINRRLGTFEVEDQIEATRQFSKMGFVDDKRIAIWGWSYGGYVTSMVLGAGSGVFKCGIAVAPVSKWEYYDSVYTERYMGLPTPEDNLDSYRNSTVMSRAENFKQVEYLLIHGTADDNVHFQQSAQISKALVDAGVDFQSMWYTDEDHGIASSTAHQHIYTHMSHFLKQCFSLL
# UniProt P33261, sequence (whole entry, looked up): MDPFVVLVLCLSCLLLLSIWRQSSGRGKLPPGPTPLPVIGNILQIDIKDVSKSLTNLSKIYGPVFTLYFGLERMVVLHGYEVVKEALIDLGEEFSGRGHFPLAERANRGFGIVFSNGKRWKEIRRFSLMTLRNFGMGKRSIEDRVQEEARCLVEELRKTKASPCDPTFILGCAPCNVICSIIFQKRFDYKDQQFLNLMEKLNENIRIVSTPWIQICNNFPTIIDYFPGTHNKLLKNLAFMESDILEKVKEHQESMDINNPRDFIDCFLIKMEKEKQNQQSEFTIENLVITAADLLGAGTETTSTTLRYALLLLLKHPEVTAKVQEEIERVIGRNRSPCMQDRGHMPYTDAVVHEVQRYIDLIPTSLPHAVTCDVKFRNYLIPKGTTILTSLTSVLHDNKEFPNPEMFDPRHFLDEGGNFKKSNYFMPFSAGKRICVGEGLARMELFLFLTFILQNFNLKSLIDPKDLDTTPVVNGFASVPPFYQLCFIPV
# UniProt P61073, sequence (whole entry, looked up): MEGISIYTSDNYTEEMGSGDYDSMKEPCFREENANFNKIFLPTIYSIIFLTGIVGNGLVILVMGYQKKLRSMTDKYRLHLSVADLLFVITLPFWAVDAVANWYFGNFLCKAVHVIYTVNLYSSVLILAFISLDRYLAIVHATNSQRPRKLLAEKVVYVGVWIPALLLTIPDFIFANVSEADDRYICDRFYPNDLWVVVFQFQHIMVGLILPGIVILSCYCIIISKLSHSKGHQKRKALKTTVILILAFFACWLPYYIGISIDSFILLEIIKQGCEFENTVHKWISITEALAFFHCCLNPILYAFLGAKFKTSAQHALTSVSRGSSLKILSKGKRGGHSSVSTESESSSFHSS
# UniProt Q06520, sequence (whole entry, looked up): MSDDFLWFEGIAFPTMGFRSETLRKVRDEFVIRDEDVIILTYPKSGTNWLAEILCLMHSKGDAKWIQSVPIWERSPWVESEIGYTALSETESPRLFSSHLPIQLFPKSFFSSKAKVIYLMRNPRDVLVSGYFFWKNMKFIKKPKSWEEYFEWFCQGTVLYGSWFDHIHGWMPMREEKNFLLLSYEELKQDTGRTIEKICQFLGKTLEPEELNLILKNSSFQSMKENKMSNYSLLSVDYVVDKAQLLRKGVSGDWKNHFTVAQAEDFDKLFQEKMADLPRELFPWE
# UniProt P0C1U8, sequence (whole entry, looked up): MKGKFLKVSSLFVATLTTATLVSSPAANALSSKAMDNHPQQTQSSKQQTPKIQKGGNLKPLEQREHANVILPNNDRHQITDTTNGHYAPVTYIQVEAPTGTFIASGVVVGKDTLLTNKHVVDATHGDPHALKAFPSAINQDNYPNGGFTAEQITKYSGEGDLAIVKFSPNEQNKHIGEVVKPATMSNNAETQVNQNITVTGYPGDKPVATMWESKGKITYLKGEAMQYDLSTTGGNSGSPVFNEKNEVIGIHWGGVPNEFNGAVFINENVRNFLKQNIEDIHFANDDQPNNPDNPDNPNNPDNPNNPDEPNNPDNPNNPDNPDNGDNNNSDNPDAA
# UniProt O89049, sequence (whole entry, looked up): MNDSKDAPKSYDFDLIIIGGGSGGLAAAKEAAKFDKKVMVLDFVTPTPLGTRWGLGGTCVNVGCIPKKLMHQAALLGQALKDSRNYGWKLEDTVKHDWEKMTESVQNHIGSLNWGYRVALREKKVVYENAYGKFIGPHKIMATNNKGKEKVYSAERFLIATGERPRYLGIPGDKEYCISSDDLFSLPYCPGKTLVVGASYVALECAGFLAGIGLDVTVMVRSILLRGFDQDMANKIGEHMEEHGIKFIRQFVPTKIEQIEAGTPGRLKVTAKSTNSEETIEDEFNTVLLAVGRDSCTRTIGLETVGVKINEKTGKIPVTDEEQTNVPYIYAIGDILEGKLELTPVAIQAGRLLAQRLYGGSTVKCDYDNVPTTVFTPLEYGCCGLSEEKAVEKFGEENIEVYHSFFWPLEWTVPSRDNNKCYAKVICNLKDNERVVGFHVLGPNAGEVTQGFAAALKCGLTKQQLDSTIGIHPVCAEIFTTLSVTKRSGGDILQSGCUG
Structure (SMILES),target,assay,test system,conditions,how to read,measurement,value
CNC(=O)Oc1cc(C)c(S(C)(=O)=O)c(C)c1,CYP2C9,inhibitor,human liver microsomes,"2 µM, pH 7.4, with: diclofenac",,inhibition,< 0%
C=CC(=O)Nc1cc(Nc2nccc(-c3cn(C)c4ccccc34)n2)c(OCC(F)(F)F)nc1N(C)CCN(C)C,CYP3A4,"enzyme activity, inhibitor","human, liver microsomes","0.1 µM, midazolam probe",,activity vs control,79.6%
CC[C@H](C)[C@H](NC(=O)CN)C(=O)NCC(=O)N[C@@H](CCCCN)C(=O)N[C@@H](Cc1ccccc1)C(=O)N[C@@H](CC(C)C)C(=O)N[C@@H](Cc1c[nH]cn1)C(=O)N[C@@H](CO)C(=O)N[C@@H](C)C(=O)N[C@@H](CCCCN)C(=O)N[C@@H](CCCCN)C(=O)N[C@@H](Cc1ccccc1)C(=O)NCC(=O)N[C@@H](CCCCN)C(=O)N[C@@H](C)C(=O)N[C@@H](Cc1ccccc1)C(=O)N[C@H](C(=O)NCC(=O)N[C@@H](CCC(=O)O)C(=O)N[C@H](C(=O)N[C@@H](CCSC)C(=O)N[C@@H](CC(N)=O)C(=O)N[C@@H](CO)C(=O)O)[C@@H](C)CC)C(C)C,Escherichia coli OmpT,substrate,"E. coli BL21 expressing ompT, PBS","2 µg/µL, room temperature",,time to cleavage,≤ 15 min
O=C1Cc2cc(CCN3CCN(C4=NS(=O)(=O)c5ccccc54)CC3)c(Cl)cc2N1,CYP2C9,inhibitor,human liver microsomes,"10 µM, pH 7.4, with: diclofenac",,inhibition,15.7%
[11CH3]Oc1ccc(Cc2ccncc2)nc1-c1cccc([N+](=O)[O-])c1,PDE4D,,rhesus monkey,"dose not given, 85 min, with: rolipram 1.0 mg/kg i.v. preblock",,brain radioactivity,0.65 SUV
CCn1c(-c2ccc(OC)cc2)c(-c2ccc(OC)cc2)n(CC)c1=[Se+][Au-][P+](CC)(CC)CC.Cl,"Txnrd1 (Rattus norvegicus, UniProt O89049)","enzyme activity, inhibitor",,,,IC50,0.0147 µM
CC(C)C[C@H](NC(=O)[C@H](CCCCN)NC(=O)[C@H](CCCNC(=N)N)NC(=O)[C@@H](CC(C)C)NC(=O)[C@H](Cc1c[nH]c2ccccc12)NC(=O)[C@H](CC(=O)O)NC(=O)[C@H](CCCCN)NC(=O)[C@@H](CC(C)C)NC(=O)[C@H](CCCNC(=N)N)NC(=O)[C@H](CCC(N)=O)NC(=O)[C@@H](NC(=O)[C@@H](CC(C)C)NC(=O)[C@H](CCCNC(=N)N)NC(=O)[C@H](CCCCN)NC(=O)[C@H](Cc1ccc(C(C)(C)C)cc1)NC(=O)CN)C(C)C)C(=O)N[C@H](C(N)=O)C(C)C,"sspA (Staphylococcus aureus, UniProt P0C1U8)","substrate, SDS-PAGE",,"24 h, pH 7.4, 37 °C",,proteolytic stability,stable
CC(C)(O)c1ccccc1CC[C@H](c1cccc(/C=C/c2ccc3ccc(Cl)cc3n2)c1)S(=O)(=O)CC1(CC(=O)O)CC1,CYP2C8,,human liver microsomes,"2 µM, pH 7.4, with: paclitaxel",,inhibition,94.6%
C=CCc1ccc(O)c(-c2cc(CC=C)cc(O)c2O)c1,ABCB1,rhodamine 123 efflux,,50 µM,relative to: GF120918 0.5 µM,inhibition,-0.3 ± 2.8%
CNC(=O)Oc1cc(C)c([S+](C)[O-])c(C)c1 (centres unmarked),CYP2C8,,human liver microsomes,"10 µM, pH 7.4, with: paclitaxel",,inhibition,< 0%
Cn1cc(-c2cccc(CN3CCC4(CC3)COc3c4ccc4c3CN([C@H]3CCC(=O)NC3=O)C4=O)c2)cn1,CYP3A4,"enzyme activity, inhibitor",,,,IC50,> 10 µM
CCCS(=O)(=O)c1ccc2[nH]c(NC(=O)OC)nc2c1,CYP2C9,inhibitor,human liver microsomes,"10 µM, pH 7.4, with: diclofenac",,inhibition,11.9%
C[C@]12CC[C@H](O)CC1CCC1C2[C@H](O)C(=O)[C@]2(C)[C@@H](c3ccc(=O)oc3)CC[C@]12O (some centres unmarked),"SULT2A1 (Homo sapiens, UniProt Q06520)",substrate,recombinant human enzyme,"100 µM, 60 min, pH 7.4",,sulfation rate,1.09 nmol/min/mg enzyme
CN1C(=O)[C@@H](Cc2ccc(O)cc2)NC(=O)CNC(=O)[C@H](Cc2ccc3ccccc3c2)NC(=O)[C@H](CCCNC(=N)N)NC(=O)[C@H]1CCCNC(=O)c1ccc(CNC(=O)CN2CCN(CC(=O)O)CCN(CC(=O)O)CCN(CC(=O)O)CC2)cc1 [gallium-68 labelled],"CXCR4 (Homo sapiens, UniProt P61073)",PET,"human, lymphoma lesion",,,SUVmean,9.91
[64Cu+2].c1ccc(CNCc2ccc(CN3CCCNCCNCCCNCC3)cc2)nc1,CXCR4,,"NOD/SCID mouse, U87 and U87-stb-CXCR4 xenografts, muscle","iv, 90 min, no blocking dose, ex vivo",,tissue uptake,0.29 ± 0.02 %ID/g
CC[C@H](C)[C@H](NC(=O)[C@H](Cc1ccccc1)NC(=O)[C@H](CCC(=O)O)NC(=O)[C@H](CCCCN)NC(=O)[C@H](C)NC(=O)[C@H](C)NC(=O)[C@H](CCC(N)=O)NC(=O)CNC(=O)[C@H](CCC(=O)O)NC(=O)[C@H](CC(C)C)NC(=O)[C@H](Cc1ccc(O)cc1)NC(=O)[C@H](CO)NC(=O)[C@H](CO)NC(=O)[C@@H](NC(=O)[C@H](CC(=O)O)NC(=O)[C@H](CO)NC(=O)[C@@H](NC(=O)[C@H](Cc1ccccc1)NC(=O)[C@@H](NC(=O)CNC(=O)[C@H](CCC(=O)O)NC(=O)[C@H](C)NC(=O)[C@@H](N)Cc1c[nH]cn1)[C@@H](C)O)[C@@H](C)O)C(C)C)C(=O)N[C@@H](C)C(=O)N[C@@H](Cc1c[nH]c2ccccc12)C(=O)N[C@@H](CC(C)C)C(=O)N[C@H](C(=O)N[C@@H](CCCCN)C(=O)NCC(=O)N[C@@H](CCCNC(=N)N)C(N)=O)C(C)C,"Dipeptidyl peptidase 4 (Bos taurus, UniProt P81425)",GLP1R CRE-luciferase,DMEM with 10% FBS,"100 nM, 37 °C, with: diprotin A 0.2 mM",,stability duration,> 72 h
CCN(CC)CCOc1ccc(-c2nnn(Cc3ccc(OC)cc3)c2N)cc1,CYP2C8,"enzyme activity, inhibitor",,concentration not given,,inhibition,no inhibition
CC(C)(O)c1ccccc1CC[C@H](c1cccc(/C=C/c2ccc3ccc(Cl)cc3n2)c1)[S+]([O-])CC1(CC(=O)O)CC1 (some centres unmarked),CYP2C8,,human liver microsomes,"2 µM, pH 7.4, with: paclitaxel",,inhibition,93.7%
Cc1cn2c(C(=O)NCc3ccc(C(F)(F)F)cc3)c(C)nc2s1,"CYP2C19 (Homo sapiens, UniProt P33261)",inhibitor,,,,IC50,18.7 µM
N#Cc1c(O)c(Cl)c(Cl)c(C#N)c1Cl,ABCB1,inhibitor,HEK293 expressing target,"concentration not given, with: [3H]digoxin",,intracellular accumulation,no effect
